Assay results from different studies.
Protocols differ between the studies behind these lines.
Cell line: human red blood cells

| Compound | assay | setting | scale | measurement | value |
| --- | --- | --- | --- | --- | --- |
| CC(=O)N[C@@H](CCCCN)C(=O)N[C@@H](CCCCN)C(=O)N[C@@H](CC(C)C)C(=O)N[C@@H](CC(C)C)C(=O)N[C@@H](CCCCN)C(=O)N[C@@H](CC(C)C)C(=O)N[C@@H](CC(C)C)C(=O)N[C@@H](CCCCN)C(=O)N[C@@H](CCCCN)C(=O)N1CCC[C@H]1C(=O)N[C@@H](C)C(=O)N[C@@H](CCCCN)C(=O)N[C@@H](CC(C)C)C(=O)N[C@@H](CC(C)C)C(=O)N[C@@H](CCCCN)C(N)=O | haemolysis | 6 h, 37 °C, 5% haematocrit in PBS | – | MHC10 | > 160 µM |
| CC[C@H](C)[C@H](NC(=O)[C@H](CCCCN)NC(=O)[C@H](CCCCN)NC(=O)[C@H](Cc1ccccc1)NC(=O)[C@@H](NC(=O)[C@@H](NC(=O)[C@H](CCCNC(=N)N)NC(=O)[C@H](Cc1ccccc1)NC(=O)[C@@H](NC(=O)[C@H](CCCCN)NC(=O)[C@H](CCCCN)NC(=O)[C@@H](N)CCSC)[C@@H](C)CC)C(C)C)[C@@H](C)CC)C(=O)N[C@@H](CC(C)C)C(=O)N[C@@H](CCCCN)C(=O)N[C@@H](CCCNC(=N)N)C(=O)N[C@@H](CC(C)C)C(=O)N[C@H](C(=O)N[C@H](C(=O)O)C(C)C)[C@@H](C)CC | – | 128 µg/mL, 1 h, 37 °C | baseline: Triton X-100 | haemolysis | 96.5% |
| CC(C)C[C@H](NC(=O)CN)C(=O)N[C@@H](CCCCN)C(=O)N[C@@H](CCCCN)C(=O)N[C@@H](CC(C)C)C(=O)N[C@@H](CC(C)C)C(=O)N[C@@H](CC(C)C)C(=O)N[C@@H](CC(C)C)C(=O)N[C@@H](CC(C)C)C(=O)N[C@@H](CCCCN)C(=O)N[C@@H](CCCCN)C(=O)N[C@@H](CC(C)C)C(=O)NCC(=O)NCC(=O)NCC(=O)N[C@@H](Cc1ccc(O)cc1)C(=O)N[C@H](C(=O)N[C@@H](CC(C)C)C(=O)N[C@@H](CO)C(=O)N[C@@H](CC(=O)O)C(=O)N[C@@H](CCCNC(=N)N)C(=O)N[C@@H](CO)C(=O)N[C@@H](Cc1c[nH]cn1)C(=O)N[C@@H](CC(N)=O)C(=O)N1CCC[C@H]1C(=O)N[C@@H](Cc1ccccc1)C(=O)N[C@@H](CC(N)=O)C(=O)O)[C@@H](C)O | – | 1 h, 37 °C, 10% hemolysis | – | lowest hemolytic concentration | > 256 µg/mL |
| CC[C@H](C)[C@H](N)C(=O)N1CCC[C@H]1C(=O)N[C@@H](CC(C)C)C(=O)N[C@@H](Cc1ccccc1)C(=O)N[C@@H](CCCNC(=N)N)C(=O)N[C@@H](CCCNC(=N)N)C(=O)N[C@@H](Cc1ccccc1)C(=O)NCC(=O)N[C@@H](CCCNC(=N)N)C(=O)N[C@@H](CCC(N)=O)C(=O)N[C@@H](CCCNC(=N)N)C(=O)N[C@@H](CCCCN)C(=O)N[C@H](C(=O)NCC(=O)NCC(=O)N[C@@H](CCCNC(=N)N)C(=O)NCC(=O)N[C@@H](CCCNC(=N)N)C(=O)N[C@H](C(=O)N[C@H](C(=O)N[C@@H](CO)C(=O)N1CCC[C@H]1C(=O)N[C@@H](Cc1ccc(O)cc1)C(=O)N[C@@H](CCCNC(=N)N)C(=O)N[C@H](C(=O)N1CCC[C@H]1C(=O)N[C@H](C(=O)N[C@@H](CC(C)C)C(=O)N[C@@H](CCCNC(=N)N)C(=O)N[C@@H](CCCNC(=N)N)C(=O)N[C@@H](Cc1c[nH]cn1)C(=O)N[C@@H](CCCNC(=N)N)C(=O)N[C@@H](Cc1ccc(O)cc1)C(=O)N[C@@H](CO)C(=O)N[C@H](C(=O)N[C@@H](Cc1ccccc1)C(=O)N[C@@H](CCCNC(=N)N)C(=O)O)[C@@H](C)CC)C(C)C)[C@@H](C)O)[C@@H](C)CC)[C@@H](C)CC)[C@@H](C)CC | hemolysis | – | – | HC50 | 351 µmol/L |
| CC(C)C[C@H](NC(=O)CNC(=O)[C@H](CCCCN)NC(=O)[C@H](CC(C)C)NC(=O)[C@H](CC(C)C)NC(=O)[C@H](CC(C)C)NC(=O)[C@H](CCCCN)NC(=O)CNC(=O)[C@H](CC(C)C)NC(=O)[C@H](CC(C)C)NC(=O)[C@@H](N)CCCCN)C(=O)N[C@@H](CC(C)C)C(=O)N[C@@H](CCCCN)C(=O)O | – | 1 h, 37 °C, 10% hemolysis | – | lowest hemolytic concentration | > 256 µg/mL |
| CCCCCC(=O)N[C@@H](CCCCN)C(=O)N[C@@H](CCCCN)C(=O)N[C@@H](C)C(=O)N[C@@H](CC(C)C)C(=O)N[C@@H](CCCCN)C(=O)N[C@@H](CC(C)C)C(=O)N[C@@H](C)C(=O)N[C@@H](CCCCN)C(=O)N[C@@H](CCCCN)C(=O)N1CCC[C@H]1C(=O)N[C@@H](CC(C)C)C(=O)N[C@@H](CCCCN)C(=O)N[C@@H](CC(C)C)C(=O)N[C@@H](CC(C)C)C(=O)N[C@@H](CCCCN)C(N)=O | haemolysis | 6 h, 37 °C, 5% haematocrit in PBS | – | MHC10 | > 160 µM |
| CC[C@H](C)[C@H](NC(=O)[C@H](CCCCN)NC(=O)[C@H](CC(C)C)NC(=O)[C@H](CCSC)NC(=O)[C@H](CO)NC(=O)[C@H](C)NC(=O)CNC(=O)[C@H](CCCCN)NC(=O)[C@H](CCCCN)NC(=O)[C@H](CC(N)=O)NC(=O)CNC(=O)[C@H](CCCCN)NC(=O)[C@H](CC(C)C)NC(=O)[C@H](CCCNC(=N)N)NC(=O)[C@@H](NC(=O)[C@H](CC(C)C)NC(=O)[C@H](Cc1ccc(O)cc1)NC(=O)[C@H](CCCCN)NC(=O)[C@H](C)NC(=O)[C@H](CCCCN)NC(=O)[C@@H]1CCCN1C(=O)[C@H](CCCCN)NC(=O)CNC(=O)[C@H](CCCNC(=N)N)NC(=O)[C@H](CC(C)C)NC(=O)[C@H](CCC(N)=O)NC(=O)[C@@H](N)Cc1ccccc1)C(C)C)C(=O)N[C@@H](CC(C)C)C(=O)N[C@@H](C)C(=O)N[C@H](C(=O)N[C@H](C(=O)N[C@@H](CCCNC(=N)N)C(=O)N1CCC[C@H]1C(=O)N[C@H](C(=O)N[C@@H](CCCCN)C(=O)N[C@@H](CCC(N)=O)C(=O)N[C@@H](CO)C(=O)N[C@@H](Cc1ccccc1)C(=O)N1CCC[C@H]1C(=O)N[C@@H](CO)C(=O)N[C@@H](CC(C)C)C(=O)N1CCC[C@H]1C(=O)O)[C@@H](C)O)[C@@H](C)O)[C@@H](C)O | hemolysis | – | – | HC50 | 18.4 µmol/L |
| CC(=O)N[C@@H](CCCCN)C(=O)N[C@@H](CCCCN)C(=O)N[C@@H](C)C(=O)N[C@@H](CC(C)C)C(=O)N[C@@H](CCCCN)C(=O)N[C@@H](CC(C)C)C(=O)N[C@@H](CC(C)C)C(=O)N[C@@H](CCCCN)C(=O)N[C@@H](CCCCN)C(=O)N1CCC[C@H]1C(=O)N[C@@H](CC(C)C)C(=O)N[C@@H](CCCCN)C(=O)N[C@@H](CC(C)C)C(=O)N[C@@H](CC(C)C)C(=O)N[C@@H](CCCCN)C(N)=O | haemolysis | 6 h, 37 °C, 5% haematocrit in PBS | – | MHC10 | > 160 µM |
| CC(C)C[C@H](NC(=O)CNC(=O)CNC(=O)CNC(=O)[C@H](CC(N)=O)NC(=O)[C@H](Cc1ccccc1)NC(=O)[C@@H]1CCCN1C(=O)[C@H](CC(N)=O)NC(=O)[C@H](Cc1c[nH]cn1)NC(=O)[C@H](CO)NC(=O)[C@H](CCCNC(=N)N)NC(=O)[C@H](CC(=O)O)NC(=O)[C@H](CO)NC(=O)[C@H](CC(C)C)NC(=O)[C@@H](NC(=O)[C@@H](N)Cc1ccc(O)cc1)[C@@H](C)O)C(=O)N[C@@H](CCCCN)C(=O)N[C@@H](CCCCN)C(=O)N[C@@H](CC(C)C)C(=O)N[C@@H](CC(C)C)C(=O)N[C@@H](CC(C)C)C(=O)N[C@@H](CC(C)C)C(=O)N[C@@H](CC(C)C)C(=O)N[C@@H](CCCCN)C(=O)N[C@@H](CCCCN)C(=O)N[C@@H](CC(C)C)C(=O)NCC(=O)O | – | 1 h, 37 °C, 10% hemolysis | – | lowest hemolytic concentration | > 256 µg/mL |
| CC[C@H](C)[C@H](NC(=O)[C@H](CCCNC(=N)N)NC(=O)[C@@H]1CCCN1C(=O)[C@H](CCCNC(=N)N)NC(=O)[C@@H](N)CCCNC(=N)N)C(=O)N[C@@H](Cc1c[nH]cn1)C(=O)N[C@@H](Cc1ccccc1)C(=O)N[C@@H](CCCNC(=N)N)C(=O)N[C@@H](Cc1ccccc1)C(=O)N1CCC[C@H]1C(=O)N[C@@H](CC(N)=O)C(=O)N[C@@H](CCCNC(=N)N)C(=O)N1CCC[C@H]1C(=O)N[C@@H](Cc1ccccc1)C(=O)N[C@H](C(=O)N1CCC[C@H]1C(=O)N[C@@H](CO)C(=O)N[C@@H](CCCNC(=N)N)C(=O)N[C@@H](CS)C(=O)N[C@@H](CC(N)=O)C(=O)N[C@@H](Cc1c[nH]cn1)C(=O)N[C@@H](CCCNC(=N)N)C(=O)N[C@@H](Cc1ccccc1)C(=O)N1CCC[C@H]1C(=O)N[C@@H](Cc1ccccc1)C(=O)N[C@@H](CCC(N)=O)C(=O)N1CCC[C@H]1C(=O)N[C@@H](Cc1ccccc1)C(=O)N[C@@H](Cc1ccc(O)cc1)C(=O)N[C@@H](Cc1c[nH]c2ccccc12)C(=O)N1CCC[C@H]1C(=O)N[C@@H](Cc1c[nH]cn1)C(=O)N[C@@H](CCCNC(=N)N)C(=O)N[C@@H](Cc1ccc(O)cc1)C(=O)N[C@@H](CC(C)C)C(=O)N[C@H](C(=O)N[C@@H](Cc1ccc(O)cc1)C(=O)N[C@@H](CCCNC(=N)N)C(=O)N[C@@H](Cc1ccc(O)cc1)C(=O)N[C@@H](Cc1ccccc1)C(=O)N1CCC[C@H]1C(=O)N[C@@H](CCCNC(=N)N)C(=O)N[C@@H](CCCNC(=N)N)C(=O)N[C@@H](CCCNC(=N)N)C(=O)N[C@@H](CC(C)C)C(=O)N[C@@H](CCC(N)=O)C(=O)N[C@@H](CCCNC(=N)N)C(=O)O)[C@@H](C)O)C(C)C | hemolysis | – | – | HC50 | 4.14 µmol/L |

Repeated from above:
| Compound | assay | setting | scale | measurement | value |
| --- | --- | --- | --- | --- | --- |
| CC(=O)N[C@@H](CCCCN)C(=O)N[C@@H](CCCCN)C(=O)N[C@@H](C)C(=O)N[C@@H](CC(C)C)C(=O)N[C@@H](CCCCN)C(=O)N[C@@H](CC(C)C)C(=O)N[C@@H](CC(C)C)C(=O)N[C@@H](CCCCN)C(=O)N[C@@H](CCCCN)C(=O)N1CCC[C@H]1C(=O)N[C@@H](CC(C)C)C(=O)N[C@@H](CCCCN)C(=O)N[C@@H](CC(C)C)C(=O)N[C@@H](CC(C)C)C(=O)N[C@@H](CCCCN)C(N)=O | haemolysis | 6 h, 37 °C, 5% haematocrit in PBS | – | MHC10 | > 160 µM |
| CC(C)C[C@H](NC(=O)CNC(=O)CNC(=O)CNC(=O)[C@H](CC(N)=O)NC(=O)[C@H](Cc1ccccc1)NC(=O)[C@@H]1CCCN1C(=O)[C@H](CC(N)=O)NC(=O)[C@H](Cc1c[nH]cn1)NC(=O)[C@H](CO)NC(=O)[C@H](CCCNC(=N)N)NC(=O)[C@H](CC(=O)O)NC(=O)[C@H](CO)NC(=O)[C@H](CC(C)C)NC(=O)[C@@H](NC(=O)[C@@H](N)Cc1ccc(O)cc1)[C@@H](C)O)C(=O)N[C@@H](CCCCN)C(=O)N[C@@H](CCCCN)C(=O)N[C@@H](CC(C)C)C(=O)N[C@@H](CC(C)C)C(=O)N[C@@H](CC(C)C)C(=O)N[C@@H](CC(C)C)C(=O)N[C@@H](CC(C)C)C(=O)N[C@@H](CCCCN)C(=O)N[C@@H](CCCCN)C(=O)N[C@@H](CC(C)C)C(=O)NCC(=O)O | – | 1 h, 37 °C, 10% hemolysis | – | lowest hemolytic concentration | > 256 µg/mL |
